Assay results of several laboratories.
Lines come from different studies, so protocols differ. Several values in a cell are separate wells, animals, samples, runs or records. ± marks the error that the study gave.
Partner: itself
B1: ddrC (Deinococcus radiodurans, UniProt Q9RYE6); sequence looked up; chain MKNAPLTLNFGSVRLPVSADGLLHAPTAQQQLGLTQSWEAALVEHGLPETYRDFGAGPEAAVSVPDFVALAFALDTPEARRWQKRARELLARAMQGDVRVAAQIAERNPEPDARRWLAARLESTGARRELLATVARHGGEGRVYGQLGSISNRTVLGKDSASVRQERGVKATRDGLTSAELLRLAYIDTVTARAIQESEARGNAAILTLHEQVARSERQSWERAGQVQRVG
B2: IFNG 24-156 (Homo sapiens); chain MQDPYVKEAENLKKYFNAGHSDVADNGTLFLGILKNWKEESDRKIMQSQIVSFYFKLFKNFKDDQSIQKSVETIKEDMNVKFFNSNKKKRDDFEKLTNYSVTDLNVQRKAIHELIQVMAELSPAAKTGKRKRSQAAA
B3: phage phi29 gene 12 product D1*-D2-D3-D4 89-854 G817S/S777N/D701G/A535V/D457E/G449V/D372A/Q181E/K166R/E695Q (bacteriophage phi29, UniProt P20345); N-terminal His6; sequence looked up; chain FADLVIQVIDELKQFGVSVKTYGAKGDGVTDDIRAFEKAIESGFPVYVPYGTFMVSRGIKLPSNTVLTGAGKRNAVIRFMDSVGRGESLMYNENVTTGNENIFLSSFTLDGNNKRLGQGISGIGGSRESNLSIRACHNVYIRDIEAVDCTLHGIDITCGGLDYPYLGDGTTAPNPSENIWIENCEATGFGDDGITTHHSQYINILNCYSHDPRLTANCNGFEIDDGSRHVVLSNNRSKGCYGGIEIKAHGDAPAAYNISINGHMSVEDVRSYNFRHIGHHAATAPQSVSAKNIVASNLVSIRPNNKRGFQDNATPRVLAVSAYYGVVINGLTGYTDDPNLLTETVVSVQFRARNCSLNGVVLTGFSNSENGIYVIGGSRGGDAVNISNVTLNNSGRYGVSIGSGIENVSITNISGIGDGINSPVALVSTINSNPEISGLSSIGYPTVARVAGTDYNDGLTLFNGAFRASTTSSGKIHSEGFIMGSTSGCEASVSKSGVLTSSSSKTSSERSLIAGSSTSEAKGTYNTILGSLGAVADEQFAALISASQSRASGNHNLILSSYGINTTGSYKVNGGFEKINWELDSLNGRIKARDTVTGGNTWSDFAQYFESLGGQVIETGYLVTLEKGKIRKAEKGEKIIGVISETAGFVLGESSFEWQGAVLKNEFGGIIYEEVTTEDGVKFKRPLPNPDFDPNKNYIPRSQRREWHVVGLLGQIAVRIDETVKQGHSIDAVGGVATDGDNFIVQEITTPYTKEKGYGVAIVLVK
B4: Pah F80A (Rattus norvegicus, UniProt P04176); sequence looked up; chain MAAVVLENGVLSRKLSDFGQETSYIEDNSNQNGAISLIFSLKEEVGALAKVLRLFEENDINLTHIESRPSRLNKDEYEFATYLDKRTKPVLGSIIKSLRNDIGATVHELSRDKEKNTVPWFPRTIQELDRFANQILSYGAELDADHPGFKDPVYRARRKQFADIAYNYRHGQPIPRVEYTEEEKQTWGTVFRTLKALYKTHACYEHNHIFPLLEKYCGFREDNIPQLEDVSQFLQTCTGFRLRPVAGLLSSRDFLGGLAFRVFHCTQYIRHGSKPMYTPEPDICHELLGHVPLFSDRSFAQFSQEIGLASLGAPDEYIEKLATIYWFTVEFGLCKEGDSIKAYGAGLLSSFGELQYCLSDKPKLLPLELEKTACQEYSVTEFQPLYYVAESFSDAKEKVRTFAATIPRPFSVRYDPYTQRVEVLDNTQQLKILADSINSEVGILCNALQKIKS
B5: NUMA1 1-505 (Homo sapiens, UniProt Q14980); LD555 dye on C-terminal SNAP; sequence looked up; chain MTLHATRGAALLSWVNSLHVADPVEAVLQLQDCSIFIKIIDRIHGTEEGQQILKQPVSERLDFVCSFLQKNRKHPSSPECLVSAQKVLEGSELELAKMTMLLLYHSTMSSKSPRDWEQFEYKIQAELAVILKFVLDHEDGLNLNEDLENFLQKAPVPSTCSSTFPEELSPPSHQAKREIRFLELQKVASSSSGNNFLSGSPASPMGDILQTPQFQMRRLKKQLADERSNRDELELELAENRKLLTEKDAQIAMMQQRIDRLALLNEKQAASPLEPKELEELRDKNESLTMRLHETLKQCQDLKTEKSQMDRKINQLSEENGDLSFKLREFASHLQQLQDALNELTEEHSKATQEWLEKQAQLEKELSAALQDKKCLEEKNEILQGKLSQLEEHLSQLQDNPPQEKGEVLGDVLQLETLKQEAATLAANNTQLQARVEMLETERGQQEAKLLAERGHFEEEKQQLSSLITDLQSSISNLSQAKEELEQASQAHGARLTAQVASLTS
B6: RB1CC1 1490-1594 (Homo sapiens, UniProt Q8TDY2); chain SRHSEKIAIRDFQVGDLVLIILDERHDNYVLFTVSPTLYFLHSESLPALDLKPGEGASGASRRPWVLGKVMEKEYCQAKKAQNRFKVPLGTKFYRVKAVSWNKKV
B7: lacI 1-360 D149A (Escherichia coli, UniProt P03023); chain MKPVTLYDVAEYAGVSYQTVSRVVNQASHVSAKTREKVEAAMAELNYIPNRVAQQLAGKQSLLIGVATSSLALHAPSQIVAAIKSRADQLGASVVVSMVERSGVEACKAAVHNLLAQRVSGLIINYPLDDQDAIAVEAACTNVPALFLAVSDQTPINSIIFSHEDGTRLGVEHLVALGHQQIALLAGPLSSVSARLRLAGWHKYLTRNQIQPIAEREGDWSAMSGFQQTMQMLNEGIVPTAMLVANDQMALGAMRAITESGLRVGADISVVGYDDTEDSSCYIPPLTTIKQDFRLLGQTSVDRLLQLSQGQAVKGNQLLPVSLVKRKTTLAPNTQTASPRALADSLMQLARQVSRLESGQ
B8: TPT1 (Homo sapiens, UniProt P13693); sequence looked up; chain MIIYRDLISHDEMFSDIYKIREIADGLCLEVEGKMVSRTEGNIDDSLIGGNASAEGPEGEGTESTVITGVDIVMNHHLQETSFTKEAYKKYIKDYMKSIKGKLEEQRPERVKPFMTGAAEQIKHILANFKNYQFFIGENMNPDGMVALLDYREDGVTPYMIFFKDGLEMEKC
B9: tryptophanyl-tRNA synthetase residues 206-593 (Cryptosporidium parvum, UniProt F0X4V6); chain GPGSMPWEVKADNAYGIDYNKLIDKFGCKLITKDMIERMERLTGQKAHHFFRRNIFLSHRDFEKILDVYEKGELFYLYTGRGPSSESLHVGHLVPFLFTKYLQDTFKVPLVIQLTDDEKFIFKSNLTLEETHNYAYENMKDIIACGFDPELTFIFTNLEYIAELYPDILRIEKKISCSQIKSIFGFKDSCNVGKFAFPAVQAAPAFSSSFPHIFGGRTDIHCLVPHAIDQDPYFRMVRDVAPRLGYLKPSSIHSIFLPSLQGSQTKMSASVQNSSIFVNDNEESIRNKIMKYAFSGGQATEEEQRRLGANLDVDVSWQYLRFLMEDDEKLEEIGKKYSSGEMLSGEIKSILVQELVKLTKNHQKNREAINDDVIAKFTNKSREQLLKLFINKK
B10: cfbA 1-143 S11Y (Methanocaldococcus jannaschii, UniProt Q58380); chain MEALVLVGHGYRLPYSKELLVKLAEKVKERNLFPIVEIGLMEFSEPTIPQAVKKAIEQGAKRIIVVPVFLAHGIHTTRDIPRLLGLIEDNHEHHHEHSHHHHHHHHHEHEKLEIPEDVEIIYREPIGADDRIVDIIIDRAFGR
B11: SLFN11 1-901 E209A/E214A (Homo sapiens, UniProt Q7Z7L1); chain MEANQCPLVVEPSYPDLVINVGEVTLGEENRKKLQKIQRDQEKERVMRAACALLNSGGGVIRMAKKVEHPVEMGLDLEQSLRELIQSSDLQAFFETKQQGRCFYIFVKSWSSGPFPEDRSVKPRLCSLSSSLYRRSETSVRSMDSREAFCFLKTKRKPKILEEGPFHKIHKGVYQELPNSDPADPNSDPADLIFQKDYLEYGEILPFPASQLVAFKQFSTKHFQEYVKRTIPEYVPAFANTGGGYLFIGVDDKSREVLGCAKENVDPDSLRRKIEQAIYKLPCVHFCQPQRPITFTLKIVNVLKRGELYGYACMIRVNPFCCAVFSEAPNSWIVEDKYVCSLTTEKWVGMMTDTDPDLLQLSEDFECQLSLSSGPPLSRPVYSKKGLEHKKELQQLLFSVPPGYLRYTPESLWRDLISEHRGLEELINKQMQPFFRGILIFSRSWAVDLNLQEKPGVICDALLIAQNSTPILYTILREQDAEGQDYCTRTAFTLKQKLVNMGGYTGKVCVRAKVLCLSPESSAEALEAAVSPMDYPASYSLAGTQHMEALLQSLVIVLLGFRSLLSDQLGCEVLNLLTAQQYEIFSRSLRKNRELFVHGLPGSGKTIMAMKIMEKIRNVFHCEAHRILYVCENQPLRNFISDRNICRAETRKTFLRENFEHIQHIVIDEAQNFRTEDGDWYGKAKSITRRAKGGPGILWIFLDYFQTSHLDCSGLPPLSDQYPREELTRIVRNADPIAKYLQKEMQVIRSNPSFNIPTGCLEVFPEAEWSQGVQGTLRIKKYLTVEQIMTCVADTCRRFFDRGYSPKDVAVLVSTAKEVEHYKYELLKAMRKKRVVQLSDACDMLGDHIVLDSVRRFSGLERSIVFGIHPRTADPAILPNVLICLASRAKQHLYIFPWGGH
B12: HPCD (UniProt Q45135); sequence looked up; chain MSNEIPKPVAPAPDILRCAYAELVVTDLAKSRNFYVDVLGLHVSYEDENQIYLRSFEEFIHHNLVLTKGPVAALKAMAFRVRTPEDVDKAEAYYQELGCRTERRKDGFVKGIGDALRVEDPLGFPYEFFFETTHVERLHMRYDLYSAGELVRLDHFNQVTPDVPRGRKYLEDLGFRVTEDIQDDEGTTYAAWMHRKGTVHDTALTGGNGPRLHHVAFSTHEKHNIIQICDKMGALRISDRIERGPGRHGVSNAFYLYILDPDNHRIEIYTQDYYTGDPDNPTITWNVHDNQRRDWWGNPVVPSWYTEASKVLDLDGNVQEIIERTDDSELEVTIGADGFSFTRAGDEDGSYHGQASKGFKLGNQL
B13: PCK1 S62D/T66E (Arabidopsis thaliana, UniProt Q9T074); sequence looked up; chain MSAGNGNATNGDGGFSFPKGPVMPKITTGAAKRGSGVCHDDSGPTVNATTIDELHSLQKKRDAPTEPINQNAAAAFAAVSEEERQKIQLQSISASLASLTRESGPKVVRGDPAEKKTDGSTTPAYAHGQHHSIFSPATGAVSDSSLKFTHVLYNLSPAELYEQAIKYEKGSFITSNGALATLSGAKTGRAPRDKRVVRDATTEDELWWGKGSPNIEMDEHTFMVNRERAVDYLNSLEKVFVNDQYLNWDPENRIKVRIVSARAYHSLFMHNMCIRPTQEELESFGTPDFTIYNAGQFPCNRYTHYMTSSTSVDLNLARREMVILGTQYAGEMKKGLFSVMHYLMPKRRILSLHSGCNMGKDGDVALFFGLSGTGKTTLSTDHNRYLIGDDEHCWTETGVSNIEGGCYAKCVDLSREKEPDIWNAIKFGTVLENVVFDEHTREVDYSDKSVTENTRAAYPIEFIPNAKIPCVGPHPTNVILLACDAFGVLPPVSKLNLAQTMYHFISGYTALVAGTEDGIKEPTATFSACFGAAFIMLHPTKYAAMLAEKMKSQGATGWLVNTGWSGGSYGVGNRIKLAYTRKIIDAIHSGSLLKANYKKTEIFGFEIPTEIEGIPSEILDPVNSWSDKKAHKDTLVKLGGLFKKNFEVFANHKIGVDGKLTEEILAAGPIF
B14: PLD4 60-506 (Homo sapiens, UniProt Q96BZ4); 3-phosphohistidine; sequence looked up; chain WGQVQPKDVPRSWEHGSSPAWEPLEAEARQQRDSCQLVLVESIPQDLPSAAGSPSAQPLGQAWLQLLDTAQESVHVASYYWSLTGPDIGVNDSSSQLGEALLQKLQQLLGRNISLAVATSSPTLARTSTDLQVLAARGAHVRQVPMGRLTRGVLHSKFWVVDGRHIYMGSANMDWRSLTQVKELGAVIYNCSHLAQDLEKTFQTYWVLGVPKAVLPKTWPQNFSSHFNRFQPFHGLFDGVPTTAYFSASPPALCPQGRTRDLEALLAVMGSAQEFIYASVMEYFPTTRFSHPPRYWPVLDNALRAAAFGKGVRVRLLVGCGLNTDPTMFPYLRSLQALSNPAANVSVDVKVFIVPVGNHSNIPFSRVNHSKFMVTEKAAYIGTSNWSEDYFSSTAGVGLVVTQSPGAQPAGATVQEQLRQLFERDWSSRYAVGLDGQAPGQDCVWQG
B15: RTT106 residues 1-67 (Saccharomyces cerevisiae, UniProt P40161); chain GHMMSKLFLDELPESLSRKIGTVVRVLPSSLEIFEELYKYALNENSNDRSGRHKKPRIDVSSDLLKTDEI
Sequence of UniProt P40381 (whole entry, looked up): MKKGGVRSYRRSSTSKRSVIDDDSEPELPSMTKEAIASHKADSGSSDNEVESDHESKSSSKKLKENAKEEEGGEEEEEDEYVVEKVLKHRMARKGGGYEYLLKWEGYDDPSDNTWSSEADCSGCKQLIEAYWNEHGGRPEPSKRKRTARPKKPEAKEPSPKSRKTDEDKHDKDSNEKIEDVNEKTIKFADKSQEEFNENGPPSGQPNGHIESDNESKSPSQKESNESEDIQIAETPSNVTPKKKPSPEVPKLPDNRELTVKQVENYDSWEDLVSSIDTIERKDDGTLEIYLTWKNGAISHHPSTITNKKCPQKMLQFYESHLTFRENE

swi6 (Schizosaccharomyces pombe, UniProt P40381)  subunits per oligomer (SEC-SAXS): 2
B1 (ddrC)  subunits per oligomer (SEC-MALS): 1.9 ± 0.16 n-mer
B2 (IFNG 24-156)  subunits per oligomer (AUC): 2
B3  subunits per oligomer (crystal structure): 3
B4 (Pah F80A)  subunits per oligomer (SEC): 4
B5 (NUMA1 1-505)  subunits per oligomer (mass photometry): 2
B6 (RB1CC1 1490-1594)  subunits per oligomer (X-ray crystallography): 2
B7 (lacI 1-360 D149A)  subunits per oligomer (SEC): 4
B8 (TPT1)  subunits per oligomer (western blot, non-reducing SDS-PAGE; BEAS-2B, culture supernatant; not purified): 6 and 2
B9  subunits per oligomer (X-ray crystallography): 2
B10 (cfbA 1-143 S11Y)  subunits per oligomer (SEC): 2
B11 (SLFN11 1-901 E209A/E214A)  subunits per oligomer (SEC): 2
B12 (HPCD)  subunits per oligomer (crystal structure): 4
B13 (PCK1 S62D/T66E)  subunits per oligomer (SEC): 6 and 12
B14 (PLD4 60-506)  subunits per oligomer (X-ray crystallography): 2
RDVEMEEMIEQLQEKVHELERQNEVLKNRLISAKQQLQVQG (Rpgrip1l 104-144 (Mus musculus, UniProt Q8CG73); sequence looked up)  subunits per oligomer (SEC-MALS): 2
B15 (RTT106 residues 1-67)  subunits per oligomer (NMR structure): 2

Repeated from above:
B13 (PCK1 S62D/T66E)  subunits per oligomer (SEC): 6 and 12
B1 (ddrC)  subunits per oligomer (SEC-MALS): 1.9 ± 0.16 n-mer
